# Published values pooled from the literature.
# A part holds a random share of what one study measured.

# Study 1
# Target: Centromere-binding protein 1, full length, N-terminal tag (CBF1, Saccharomyces cerevisiae, UniProt P17106, residues 1-351)
# UniProt P17106, sequence (whole entry, looked up): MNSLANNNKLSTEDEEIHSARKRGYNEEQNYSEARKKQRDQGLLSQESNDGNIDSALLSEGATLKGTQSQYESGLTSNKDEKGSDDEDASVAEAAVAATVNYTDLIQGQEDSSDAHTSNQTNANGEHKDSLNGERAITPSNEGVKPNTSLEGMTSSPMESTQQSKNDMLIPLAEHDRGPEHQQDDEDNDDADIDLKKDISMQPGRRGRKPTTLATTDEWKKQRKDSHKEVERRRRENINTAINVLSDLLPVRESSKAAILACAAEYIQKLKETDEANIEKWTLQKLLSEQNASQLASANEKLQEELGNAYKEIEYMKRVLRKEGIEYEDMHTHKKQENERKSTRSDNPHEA
# Method: protein-binding microarray
# Form: double-stranded DNA, one strand shown
# Sample: in vitro
# Tested at: 0.8 µM
# Setting: whole 60-bp probe, no competitor
# Reading: higher = stronger binding
Sequence,fluorescence intensity [a.u.]
CCTAACTACTATAACATCGTGAAATAGCTTCGTACAGTCTTGATTCGCTTGACGCTGCTG,549
CTAACGTGGCCGCTTCGTGTGCCTTGAAAATACTTCGTCTTGATTCGCTTGACGCTGCTG,530
GAACTATCTTTATCTCACCTGTTTGAGGGAAAGTAGGTCTTGATTCGCTTGACGCTGCTG,568
GAAGCGTGTTCTAGTCACGAAACGCGCCAAAAATAGGTCTTGATTCGCTTGACGCTGCTG,594

# Study 2
# Target: Interferon regulatory factor 7, full length, phosphomimetic (IRF7, Homo sapiens, UniProt Q92985, residues 1-503, S101K/S471D/S472D/S475D/S476D/S477D/S483D/S484D/S487D)
# Method: protein-binding microarray
# Form: double-stranded DNA, one strand shown
# Sample: in vitro
# Tested at: 250 nM
# Setting: 60-bp whole probe
# With: salmon DNA 0.4 mg/ml
# Baseline: random background probes
# Reading: higher = stronger binding
# Target sequence (chain): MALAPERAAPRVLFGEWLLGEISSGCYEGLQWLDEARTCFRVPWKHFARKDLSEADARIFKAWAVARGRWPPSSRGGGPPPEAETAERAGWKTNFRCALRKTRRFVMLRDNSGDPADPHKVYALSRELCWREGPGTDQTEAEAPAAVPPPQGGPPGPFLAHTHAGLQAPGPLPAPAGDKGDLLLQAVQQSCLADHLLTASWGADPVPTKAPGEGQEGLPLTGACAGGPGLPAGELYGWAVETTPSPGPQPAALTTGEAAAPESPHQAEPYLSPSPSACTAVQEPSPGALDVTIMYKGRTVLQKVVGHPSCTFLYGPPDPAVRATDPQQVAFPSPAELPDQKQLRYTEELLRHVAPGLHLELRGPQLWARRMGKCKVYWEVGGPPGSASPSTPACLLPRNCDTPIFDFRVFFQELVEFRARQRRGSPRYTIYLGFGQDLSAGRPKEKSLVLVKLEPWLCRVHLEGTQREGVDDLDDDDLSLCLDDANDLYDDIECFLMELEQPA
Sequence,log fluorescence [z-score]
GCCTAGCACGGACTCACCTAGTTTCATTCCGTGCTAGTCTTGATTCGCTTGACGCTGCTG,3.12
GCCTAGCACGACGATATCGGGCATCGAGACGTGCTAGTCTTGATTCGCTTGACGCTGCTG,-0.469
GCCTAGCACTTTTTTTTCATCATTGCCTAGTGCTAGGTCTTGATTCGCTTGACGCTGCTG,1.57
GCCTAGCACGACAAACTGGGGTATCGAGACGTGCTAGTCTTGATTCGCTTGACGCTGCTG,-0.199

# Study 3
# Target: Histone acetyltransferase KAT6A, both winged helices, GST fusion (KAT6A, Homo sapiens, UniProt Q92794, residues 1-181)
# Method: protein binding microarray
# Form: double-stranded DNA, one strand shown
# Sample: in vitro
# Tested at: not given
# Setting: 8-mer, flanks averaged, mean of 2 arrays, mostly near background
# Baseline: not given
# Reading: higher = stronger binding
# Residues (chain): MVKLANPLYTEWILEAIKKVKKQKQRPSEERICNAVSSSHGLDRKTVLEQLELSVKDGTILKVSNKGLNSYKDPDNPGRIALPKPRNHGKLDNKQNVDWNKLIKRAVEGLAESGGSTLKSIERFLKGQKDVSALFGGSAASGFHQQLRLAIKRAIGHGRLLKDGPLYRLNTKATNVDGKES
Sequence,E-score
AACAGCTA,-0.111
CGTCTATA,0.0471
TCCACAGA,-0.218
GGCTGTGA,0.00749
GCTGCTTA,-0.0349
AGCTTTTC,-0.12

# Other studies, line by line
Substance,target,assay,system,conditions,scale,endpoint,value
"PhoQ, residues 284 288 289 292 302 303 SMYGEC","PhoP, residues 12 14 15 18 19 NQGLL (Escherichia coli, UniProt P23836)","Sort-seq, refers to: YFP reporter",E. coli,"PhoQ-PhoP variant library, with: 10 µM Mg2+","baseline: high Mg2+ state, higher = stronger signaling",fold induction,3.53

# For quick reference, copied from above (study 3):
Sequence,E-score
AGCTTTTC,-0.12
